Measured values of several laboratories.
± marks the error that the study gave.

Cc1cccc(Cn2c(OC3CCN(c4ncc(C)s4)CC3)nc3c2c(=O)n(C)c(=O)n3C)c1 — half-life (metabolic stability; rat, liver microsomes): 2 min
C[N+](C)(C)CC(CC(=O)[O-])OC(=O)CCC(=O)Nc1ccn([C@@H]2O[C@H](CO)[C@@H](O)C2(F)F)c(=O)n1 (some centres unmarked) — measured concentration (extracted rat plasma; 15.00 ng/mL, 8 h, 10 °C, autosampler stability, low QC): 16.8 ± 0.3 ng/mL
CC(=O)N[C@H](CCNC(=O)c1cc(NC(=O)c2cc(NC(=O)c3cc(NC(=O)c4nccn4C)cn3C)cn2C)cn1C)C(=O)Nc1cn(C)c(C(=O)Nc2cc(C(=O)Nc3cc(C(=O)Nc4cc(C(=O)NCCCN(C)CCCN[14C](=O)c5cccc([14C](=O)O)c5)n(C)c4)n(C)c3)n(C)c2)n1 — spleen concentration (BALB/c male mouse; intraperitoneal, 15 nmol per animal, 24 h): 0.32 mg/kg
C[C@H](Oc1cc(-c2cnn(C3CCN(CC[18F])CC3)c2)cnc1N)c1c(Cl)ccc(F)c1Cl — tracer uptake (PET imaging; nude mouse, kidney; iv, 10 min post injection): 14.2 ± 4.7 %ID/cc
CCCC(CCC)NC(=O)c1ccc(OS(=O)(=O)O)c(OC)c1 — metabolite peak area (LC-MS; Sprague-Dawley rats, pooled sexes, plasma; oral, 200 mg/kg of parent drug, 1 h; relative to: total peak area): 1.72%
CC(C)(O)c1ncc([S@](N)(=O)=NC(=O)Nc2c3c(cc4c2CCC4)CCC3)s1 — dose-normalised AUC(0-tau) (healthy human volunteers, plasma; oral, 200 mg once daily, day 14, spray-dried dispersion): 905 ng·h/mL/mg
CC[C@@H](C)N([11CH3])C(=O)c1nc(-c2ccccc2Cl)c2ccccc2n1 — time to 50% parent radioligand in plasma (rhesus monkey male, plasma; intravenous, TSPO preblock): 9.57 min
O=C(CCc1ccc(CNC(C(=O)O)C2CCCCC2)cn1)NO (centres unmarked) — AUC(0-t) (human, plasma; oral, 40 mg once daily, day 7, geometric mean): 316 ng·h/mL
Cc1[nH]nc2c1N=C(c1ccccc1Cl)c1cnc(N3CCOCC3)cc1N2 — apparent volume (Vz/F) (refers to: total radioactivity; human male, plasma; oral, 10 mg): 206 L
CCCCCCCCCCCCCCCC(=O)N[C@@H](CCCCN)C(=O)N[C@@H](CCCCN)C(=O)N[C@@H](CO)C(=O)N[C@@H](CCCNC(=N)N)C(=O)N[C@@H](C)C(=O)N[C@@H](CC(C)C)C(=O)N[C@@H](Cc1ccccc1)C(N)=O — aPTT (cynomolgus monkey, female; intravenous infusion, 3 mg/kg daily, day 1, 1 h infusion): 27.2 ± 2.7 s
CC(C)c1cnc(-c2cc(Cl)ccc2F)cc1Nc1ccncc1C(=O)NC(CO)CO — patients with any TRAE (human patients; oral, dose not given, worst grade 5): 0%
CCNC(=O)OCc1c(COC(=O)NCC)c(-c2ccc(OC)cc2)n2c1Cc1ccccc1-2 — haemoglobin (BALB/c nude mice, blood; dose not given, day 10): 12.7 ± 0.5 g/dL
C=CC(=O)Nc1cc(Nc2nccc(-c3cn(C4CC4)c4ccccc34)n2)c(OC)cc1NC — share of radioactivity (LC-RAM/HRMS; human male, plasma; oral, 110 mg, 10 h; relative to: total radioactivity): 3.45%
C=Cn1c2ccc([N+](=O)[O-])cc2c(=O)n1Cc1ccccc1 — selectivity index (Leishmania amazonensis; promastigotes, MHOM/BR/77/LTB0016; relative to: CC50 macrophages over IC50 promastigotes): 5
COCCOCCOCCOCCC(=O)NCc1cc(CNC(=O)CCOCCOCCOCCOC)cc(-c2cc3cc4nc(c(-c5ccc(CCC(=O)O)cc5)c5[nH]c(cc6nc(c(OC)c2[nH]3)CC6(C)C)cc5-c2cc(CNC(=O)CCOCCOCCOCCOC)cc(CNC(=O)CCOCCOCCOCCOC)c2)CC4(C)C)c1 — Qy emission maximum (DMF; room temperature): 731 nm
Cn1c(=O)oc2ccc(-c3ccc(CC(C#N)NC(=O)C4CNCCCO4)c(F)c3)cc21 (centres unmarked) — subjects with TRAE (refers to: alanine aminotransferase increased; human; 80 mg single dose, fasted): 0%
CCCC[C@H](NC(=O)[C@H](CC(C)C)N(C)C(=O)CNC(=O)[C@@H](NC(=O)[C@H](Cc1ccccc1)NC(=O)[C@H](CCCCN)NC(=O)[C@@H](N)CC(=O)O)C(C)C)C(N)=O — heart rate change (anaesthetised Sinclair minipig; sublingual, 5 mg/kg, lyophilised tablet; relative to: baseline): -1.56 ± 3.26%
COCC1CN(C2CCN(c3cc(OC)c(Nc4ncc(Br)c(Nc5ccc6c(c5P(C)(C)=O)OCCO6)n4)cc3C)CC2)C1 — treatment-related Vomit, all grades (human patients; oral, 10 to 240 mg once daily): 37%
CC(C)C[C@@H]1NC(=O)[C@@H](Cc2ccccc2)NC(=O)[C@H](CCN)NC(=O)[C@@H](NC(=O)[C@H](CN)NC(=O)[C@@H](NC(=O)C(CCN)Cc2ccc(Cl)cc2)[C@@H](C)O)CCNC(=O)[C@H]([C@@H](C)O)NC(=O)[C@H](CCN)NC(=O)[C@H](CCN)NC1=O (some centres unmarked) — tissue concentration (CD-1 mouse male, kidney; subcutaneous, 17.2 mg/kg, 4 h): 176000 ng/g
COc1cc(CNC(=O)C[C@H](C)CCC=C(C)C)ccc1O — growth percent (HCT-15; SRB; 10 µM, 48 h): 101%
O=c1c2cc([N+](=O)[O-])ccc2n(CCN2CCCCC2)n1Cc1ccccc1 — selectivity index (Leishmania amazonensis; promastigotes, MHOM/BR/77/LTB0016; relative to: CC50 macrophages over IC50 promastigotes): 0.5
CCc1cc(Nc2nc(-c3ccc(-n4cnc(C)c4)c(F)c3)cs2)c(C)cc1C — apparent terminal volume (Vz/F) (human, both sexes, plasma; oral, 200 mg, day 1, multiple dose, geometric mean): 522000 mL
CCN(CC)c1ccc2c(-c3ccc(S(=O)(=O)NCCNC(=O)CN4CCN(CC(=O)[O-])CCN(CC(=O)O)CCN(CC(=O)[O-])CC4)cc3S(=O)(=O)[O-])c3ccc(=[N+](CC)CC)cc-3oc2c1.[64Cu+2] — tracer uptake (U-87 MG tumour model; host not given, blood; 4 h, tumour-bearing): 0.7 %ID/g
COCCOCCOCCOc1ccc(/C=C/c2c(I)c(C)c3n2[B-](F)(F)[N+]2=C(C)C(I)=C(C)C2=C3c2cc(OC)cc(OC)c2)cc1 — Stokes shift (DMSO): 613 cm⁻¹
CCCC[C@@H]1NC(=O)[C@@H](NC(=O)[C@H](CCC(=O)O)NC(=O)CNC(=O)CN2CCN(CC(=O)O)CCN(CC(=O)O)CCN(CC(=O)O)CC2)CCCCNC(=O)C[C@@H](C(N)=O)NC(=O)[C@H](C(C)C)NC(=O)[C@@H]2CCCN2C(=O)[C@H](CCCNC(=N)N)NC(=O)CNC(=O)[C@H](Cc2c[nH]c3ccccc23)NC(=O)[C@H](CCCNC(=N)N)NC(=O)[C@@H](Cc2ccccc2)NC(=O)[C@H](Cc2c[nH]cn2)NC(=O)[C@H](CCC(=O)O)NC1=O [gallium-67 labelled] — tissue ratio (C57 mice, B16/F1 flank melanoma; intravenous, 2 h; relative to: tumour over skin): 51.7
COC(=O)c1ccc(-c2cn(Cc3cc(Cl)ccc3O[11CH3])nn2)cc1 — distribution volume (PET, Logan plot, t*=40 min; rhesus monkey, brain Midbrain; dose not given): 0.625 mL/cm³
NC[C@@H](C(=O)Nc1ccc(-c2cn[nH]c2)cc1)c1ccccc1 — iris score (OECD 405 eye irritation; New Zealand White rabbit, eye; topical, 0.1%, 96 h (day 5), scale 0 to 2; direction not given): 0
[11CH3]c1ccc2nc(C3CCC3)n(-c3ccc4[nH]ncc4c3)c2n1 — absorbed radiation dose (standard human adult, small intestine): 14.9 µSv/MBq
Cc1ccc(C(=O)N[C@@H](CO)CC(C)C)cc1CO — metabolite peak area (LC-MS; Sprague-Dawley rat, both sexes, rat liver microsomes; 10 µM of parent drug, 20 min, pH 7.4, together with: NADPH; relative to: parent drug at time zero): 0.5%
COC(=O)C(c1ccccc1Cl)N1CCC(SCC(=O)c2cccc(OC)c2)C(=CC(=O)O)C1 (mixture of isomers) — deviation from nominal (HPLC-MS/MS; feline EDTA plasma; 100 ng/mL, 12 h, 4 °C, storage stability): 7%
NCC(=O)NCC(=O)NCC(=O)NCC(=O)NCC(=O)NCC(=O)NCCCC[C@H](NC(=O)[C@@H]1CCCN1C(=O)[C@@H]1CSSCCC(=O)N[C@@H](Cc2ccc(O)cc2)C(=O)N[C@@H](Cc2ccccc2)C(=O)N[C@@H](CCCC(N)=O)C(=O)N[C@@H](CC(N)=O)C(=O)N1)C(=O)NCC(N)=O — LOAEL (paleness, lethargy) (male Sprague Dawley rats; sc, single dose): 0.38 mg/kg
CCCC[C@H](NC(=O)CNC(=O)CNC(=O)CN1CCN(CC(=O)O)CCN(CC(=O)O)CC1)C(=O)N[C@H]1CC(=O)NCCCC[C@@H](C(N)=O)NC(=O)[C@H](Cc2c[nH]c3ccccc23)NC(=O)[C@H](CCCNC(=N)N)NC(=O)[C@@H](Cc2ccccc2)NC(=O)[C@H](Cc2c[nH]cn2)NC1=O [copper-64 labelled] — uptake ratio (female C57 mouse, B16/F1 melanoma; intravenous, 0.037 MBq, 2 h; relative to: tumour over blood): 37.5
COc1cc(CNC(=O)C[C@H](C)CCC=C(C)C)ccc1OCc1cn(-c2ccccc2[N+](=O)[O-])nn1 — growth percent (OVCAR-4 ovarian cancer cells; SRB; 10 µM, 48 h): 45.3%
N=C(N)NCCC[C@@H]1NC(=O)[C@H](Cc2c[nH]c3ccccc23)NC(=O)[C@@H](CC2CCCCC2)NC(=O)[C@@H]2CCCN2C(=O)[C@@H](NC(=O)CCc2ccccc2)CCCNC1=O — apparent distributional clearance (C57BL/6J mice, spinal cord; intravenous, 1 mg/kg, two-compartment model): 21.9 ng/(min·ng/g)
Cc1nc(C)c(C=[N+]([O-])C(C)(C)C)nc1C — increase in protein level (Western blot, refers to: TFAM; MPTP mouse model, substantia nigra cytosol; 90 mg/kg): 55.2%

Repeated from above:
COC(=O)c1ccc(-c2cn(Cc3cc(Cl)ccc3O[11CH3])nn2)cc1 — distribution volume (PET, Logan plot, t*=40 min; rhesus monkey, brain Midbrain; dose not given): 0.625 mL/cm³
NC[C@@H](C(=O)Nc1ccc(-c2cn[nH]c2)cc1)c1ccccc1 — iris score (OECD 405 eye irritation; New Zealand White rabbit, eye; topical, 0.1%, 96 h (day 5), scale 0 to 2; direction not given): 0
